Experimental data gathered from unrelated publications.
Compare with care: the assays were run in different laboratories. “And” joins repeats or separate records; there may be more than shown. Numbers after ± are the reported error. ≈ marks a conversion by molar mass, not a printed value.

Under “peak heat flow time”, `CCCCCCCCCC(=O)N[C@@H](Cc1c[nH]c2ccccc12)C(=O)N[C@H](CC(N)=O)C(=O)N[C@@H](CC(=O)O)C(=O)N[C@@H]1C(=O)NCC(=O)N[C@@H](CCCNC(=O)OC2/C=C/CCCCC2)C(=O)N[C@@H](CC(=O)O)C(=O)N[C@H](C)C(=O)N[C@@H](CC(=O)O)C(=O)NCC(=O)N[C@H](CO)C(=O)N[C@@H]([C@H](C)CC(=O)O)C(=O)N[C@@H](CC(=O)c2ccccc2N)C(=O)O[C@@H]1C` (some centres unmarked) is recorded as 0 h (Staphylococcus aureus; planktonic bacterial growth, isothermal microcalorimetry; MRSA; 1.0 µg/mL, 24 h, 37 °C, with: TAG hydrogel).
With `c1ccc(CN2CCOCCOCCN(CCCCCCCCCCCCN3CCOCCOCCN(CCCCCCCCCCCCN4CCOCCOCCN(Cc5ccccc5)CCOCCOCC4)CCOCCOCC3)CCOCCOCC2)cc1` the fold enhancement was 2 fold (Klebsiella pneumoniae; tetracycline activity; ATCC BAA-2146; 2.5 µM, with: tetracycline; reference: tetracycline alone).
For `O=C(Nc1ccc([C@H]2[C@@H](F)[C@@H](F)C[C@@H](F)[C@H]2F)cc1)C1CC1`, the hepatic clearance was 36 mL/min/kg (liver microsome stability; mouse liver microsomes; 1 µM).
For `c1ccc(CN2CCOCCOCCN(CCCCCCCCN3CCOCCOCCN(CCCCCCCCN4CCOCCOCCN(Cc5ccccc5)CCOCCOCC4)CCOCCOCC3)CCOCCOCC2)cc1`, the fold enhancement was 10 fold (Klebsiella pneumoniae; ciprofloxacin activity; ATCC BAA-2146; half MIC, with: ciprofloxacin; reference: ciprofloxacin alone).
The IC50 of `Cc1ccc(-c2nc(N)c3c(Nc4ccccc4)n[nH]c3n2)cc1` is reported as 1.6 µM (rhinovirus B48; viral cytopathic effect; HeLa).
For `Cc1cc(Cl)cc(S(C)=NC#N)c1NC(=O)c1cc(Br)nn1-c1ncccc1Cl` (centres unmarked), the larval viability was 13.8% and 8.6% and 9.7% (Plutella xylostella; Raphanus sativus field plot; 50 ppm, 72 h, 10% wettable powder).
`CNC(=O)c1ccc(C2CCCCC2)cc1` has a hepatic clearance of 30 mL/min/kg (liver microsome stability; dog liver microsomes; 1 µM).
Under “body length decrease”, `CN(C)c1nc(NCc2ccc(Oc3ccccc3)cc2)c(/N=N/c2ccc(Cl)cc2)c(N(C)C)n1` is recorded as 40% (Ostrinia furnacalis; 10 µM, 6 days, larvae, artificial diet).
`Nc1nc(-c2ccccc2)nc2[nH]nc(Nc3cccc(F)c3F)c12` gave an IC50 of 0.16 µM (rhinovirus B48; viral cytopathic effect; HeLa).
With `CC(=O)O[C@@H]1[C@@H](OC(C)=O)[C@H](Sc2sc(C(=O)c3ccc(Cl)cc3)c(N)c2-c2nc3ccccc3s2)OC[C@H]1OC(C)=O` the viral reduction was 16.7% (herpes simplex virus 1; plaque reduction; non-toxic dose NG, mean over three titres).
The IC50 of `Nc1nc(-c2ccccc2)nc2[nH]nc(Nc3ccc([N+](=O)[O-])cc3)c12` is reported as 0.96 µM (rhinovirus B48; viral cytopathic effect; HeLa).
The IC50 of `CNCc1ccc2c(c1)C[C@H](CNC(=N)N)[C@H]2NC(=O)C(=O)Nc1ccc(Cl)c(F)c1` is reported as 4.54 µM (HIV-1; pseudovirus infection, Env pseudovirus neutralisation; TZM-bl, clade C).
`Nc1nc(-c2ccccc2)nc2[nH]nc(Nc3ccccc3)c12` has an IC50 of 0.07 µM (rhinovirus B48; viral cytopathic effect; HeLa).
`Cc1cccc2c1N(C(=O)n1ccnn1)CC2` gave a hypocotyl length of 10.8 mm (Arabidopsis thaliana; wild type; 1 µM, seedlings).
The IC50 of `Cc1cccc(Nc2n[nH]c3nc(-c4ccc(F)cc4F)nc(N)c23)c1` is reported as 2.16 µM (rhinovirus B48; viral cytopathic effect; HeLa).
The MIC of `C[C@@H]1C(=O)O[C@@H](C)/C=C/C=C\[C@@H](C)[C@@H]2C=C[C@@H]3C[C@@]4(C)O[C@H]4[C@@H](C)[C@H]3[C@@H]2C(=O)C(Cl)(Cl)C1=O` is reported as 0.0125 µg/mL (≈ 0.0252 µM) (Staphylococcus aureus; MSSA clinical isolate; resistant: PEN,CIP,CLI,DAP,ERY,MXF).
With `Cc1cc(N2CC[C@@](C#N)(C3(C)CC3)C2=O)cc(C(=O)NCc2cc(F)cc(-c3cnn(C)c3)c2)n1` the IC50 was 0.007 to 0.015 µM (Plasmodium falciparum; ex vivo drug susceptibility; clinical field isolates).
With `Cc1cccc(-c2nc(N)c3c(Nc4ccc(F)cc4)n[nH]c3n2)c1` the IC50 was 5.25 µM (rhinovirus B48; viral cytopathic effect; HeLa).
With `O=C(Nn1c(-c2cccc(Cl)c2)nc2ccccc2c1=O)c1ccccc1` the IC50 was 1.12 ± 0.11 µM (Fasciola hepatica; motility, ex vivo; immature flukes).
`CC(C)(C)NCC(SS(=O)(=O)O)c1ccccc1` (centres unmarked) — result for “liver weight reduction”: 34% (Schistosoma mansoni; infected mouse; 200 mg/kg, 1368 h; reference: vehicle).
With `CC1(C)[C@H](NC(=O)/C(=N\OC2(C(=O)O)CC2)c2nsc(N)n2)C(=O)N1OS(=O)(=O)O` the MIC was 1 µg/mL (≈ 2.15 µM) (Enterobacter aerogenes; agar dilution; ATCC 13048, susceptible).
For `COC1C=COC2(C)Oc3c(C)c(O)c4c(c3C2=O)C2=NC3(CCN(CC(C)C)CC3)NC2=C(NC(=O)C(C)=CC=CC(C)C(O)C(C)C(O)C(C)C(OC(=O)Nc2cnccn2)C1C)C4=O` (centres unmarked), the IC90 was 0.016 µM (Mycobacteroides abscessus; bacterial growth; subsp. massiliense clinical isolate; slow grower).
The inhibition of `CCCCNCCO.O=C(O)C(Cl)Cl` is reported as 0% (Solanum nigrum; herbicidal activity; 15 mg/mL, 21 days, post-emergence greenhouse).
With `c1ccc(CN2CCOCCOCCN(CCCCCCCCCCN3CCOCCOCCN(CCCCCCCCCCN4CCOCCOCCN(Cc5ccccc5)CCOCCOCC4)CCOCCOCC3)CCOCCOCC2)cc1` the tetracycline MIC was 300 ± 50 µM (Klebsiella pneumoniae; ATCC BAA-2146; quarter MIC, with: tetracycline).
`CN(Cc1ccc(C2(C(F)(F)F)CCC2)cc1)Cc1cccc2ccccc12` has an inhibition zone of 19.2 mm (Trichophyton mentagrophytes; microbial growth, disc diffusion; ATCC18748; 0.016 µg/mL, 72 h).
For `Cc1ccc(S(=O)(=O)Nn2c3c(cc(-c4nc5ccccc5s4)c2=O)CCCC3)cc1`, the plaque reduction was 40% (herpes simplex virus 1; viral replication, plaque; Vero; non-toxic dose, mean of three titres).
`COc1ccc(Nc2n[nH]c3nc(-c4ccccc4)nc(N)c23)cc1` has an IC50 of 0.04 µM (rhinovirus B48; viral cytopathic effect; HeLa).
The FIC index of `c1ccc(CN2CCOCCOCCN(CCCCCCCCCCCCCCN3CCOCCOCCN(CCCCCCCCCCCCCCN4CCOCCOCCN(Cc5ccccc5)CCOCCOCC4)CCOCCOCC3)CCOCCOCC2)cc1` is reported as 0.85 (Klebsiella pneumoniae; ATCC BAA-2146; half MIC, with: ciprofloxacin).
With `C=C(NC(=O)c1csc(-c2nc3c(cc2O)-c2nc(cs2)C(=O)NC(C(C)O)C(=O)NC(=C(C)OC)c2nc(cs2)C(=O)NC2c4nc(cs4)C(=O)NC(COC(=O)c4c5c6c(cccc6n4O)COC(=O)C(OC4CC(C)(O)C(N(C)C)C(C)O4)C2OC5)c2nc-3cs2)n1)C(N)=O` (centres unmarked) the MIC50 was 0.0078 µg/mL (≈ 0.00543 µM) (Staphylococcus aureus).
